Experimental data pooled from the literature.
Each numbered part is a random draw from the data of one study; scales do not carry over between parts. “And” joins repeats or separate records; there may be more than shown.
Sequence of UniProt P08069 (whole entry, looked up): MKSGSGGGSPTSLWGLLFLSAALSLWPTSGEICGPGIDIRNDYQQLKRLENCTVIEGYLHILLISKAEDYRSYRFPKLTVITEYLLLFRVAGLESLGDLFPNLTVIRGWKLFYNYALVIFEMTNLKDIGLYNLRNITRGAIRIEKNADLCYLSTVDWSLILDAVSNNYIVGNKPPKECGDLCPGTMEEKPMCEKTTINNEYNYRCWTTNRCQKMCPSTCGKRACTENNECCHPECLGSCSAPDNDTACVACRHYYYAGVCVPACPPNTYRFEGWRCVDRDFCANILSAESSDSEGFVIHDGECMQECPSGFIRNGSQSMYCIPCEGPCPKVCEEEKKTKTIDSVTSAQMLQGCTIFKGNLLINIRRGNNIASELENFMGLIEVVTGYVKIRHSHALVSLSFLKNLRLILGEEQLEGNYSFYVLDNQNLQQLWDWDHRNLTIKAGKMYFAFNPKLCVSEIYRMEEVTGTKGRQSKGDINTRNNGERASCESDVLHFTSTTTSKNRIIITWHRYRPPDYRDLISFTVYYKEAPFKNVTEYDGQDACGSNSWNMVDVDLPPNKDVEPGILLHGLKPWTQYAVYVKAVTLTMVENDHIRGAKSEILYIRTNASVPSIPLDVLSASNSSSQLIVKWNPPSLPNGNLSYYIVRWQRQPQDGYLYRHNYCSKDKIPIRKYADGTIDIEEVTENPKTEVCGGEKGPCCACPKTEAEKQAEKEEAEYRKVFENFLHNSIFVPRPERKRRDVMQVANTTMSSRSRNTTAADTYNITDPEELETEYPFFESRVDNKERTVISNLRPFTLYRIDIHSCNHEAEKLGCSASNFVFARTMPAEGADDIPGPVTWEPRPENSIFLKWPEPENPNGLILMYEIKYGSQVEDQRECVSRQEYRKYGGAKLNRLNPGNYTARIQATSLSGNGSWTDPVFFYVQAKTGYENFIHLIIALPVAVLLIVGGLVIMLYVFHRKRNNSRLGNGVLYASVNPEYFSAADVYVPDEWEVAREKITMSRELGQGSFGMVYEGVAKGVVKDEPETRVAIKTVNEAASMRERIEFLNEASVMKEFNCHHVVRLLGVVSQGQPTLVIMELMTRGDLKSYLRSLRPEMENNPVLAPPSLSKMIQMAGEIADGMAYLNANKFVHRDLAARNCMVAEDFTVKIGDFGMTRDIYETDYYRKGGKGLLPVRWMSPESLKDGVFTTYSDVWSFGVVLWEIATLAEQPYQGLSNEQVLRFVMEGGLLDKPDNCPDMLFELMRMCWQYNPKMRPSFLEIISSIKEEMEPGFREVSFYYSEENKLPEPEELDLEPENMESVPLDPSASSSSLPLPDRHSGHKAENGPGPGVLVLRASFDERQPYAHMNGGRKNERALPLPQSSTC
Sequence of UniProt Q06418 (whole entry, looked up): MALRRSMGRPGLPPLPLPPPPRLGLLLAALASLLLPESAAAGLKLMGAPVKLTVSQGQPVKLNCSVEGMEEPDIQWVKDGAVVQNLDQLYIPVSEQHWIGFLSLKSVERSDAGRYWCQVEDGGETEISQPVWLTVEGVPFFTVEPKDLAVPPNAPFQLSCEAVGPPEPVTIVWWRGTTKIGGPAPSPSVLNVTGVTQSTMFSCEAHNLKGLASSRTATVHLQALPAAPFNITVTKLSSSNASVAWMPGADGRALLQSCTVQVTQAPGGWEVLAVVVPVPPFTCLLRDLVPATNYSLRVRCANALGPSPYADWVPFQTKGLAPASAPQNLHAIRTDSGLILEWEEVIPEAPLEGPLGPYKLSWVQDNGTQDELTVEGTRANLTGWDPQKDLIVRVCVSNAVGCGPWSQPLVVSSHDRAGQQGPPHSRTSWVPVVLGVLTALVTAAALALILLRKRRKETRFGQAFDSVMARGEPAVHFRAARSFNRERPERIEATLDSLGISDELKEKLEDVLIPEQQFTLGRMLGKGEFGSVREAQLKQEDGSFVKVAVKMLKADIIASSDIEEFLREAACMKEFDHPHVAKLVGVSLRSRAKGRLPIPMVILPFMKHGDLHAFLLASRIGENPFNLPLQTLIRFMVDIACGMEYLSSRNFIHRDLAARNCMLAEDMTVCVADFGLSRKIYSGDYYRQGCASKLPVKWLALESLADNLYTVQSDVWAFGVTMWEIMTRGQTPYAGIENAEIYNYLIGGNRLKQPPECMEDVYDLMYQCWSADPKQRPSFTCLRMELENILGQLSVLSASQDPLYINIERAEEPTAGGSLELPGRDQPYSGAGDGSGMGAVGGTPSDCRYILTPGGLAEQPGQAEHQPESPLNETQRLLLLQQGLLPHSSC
Sequence of UniProt P49760 (whole entry, looked up): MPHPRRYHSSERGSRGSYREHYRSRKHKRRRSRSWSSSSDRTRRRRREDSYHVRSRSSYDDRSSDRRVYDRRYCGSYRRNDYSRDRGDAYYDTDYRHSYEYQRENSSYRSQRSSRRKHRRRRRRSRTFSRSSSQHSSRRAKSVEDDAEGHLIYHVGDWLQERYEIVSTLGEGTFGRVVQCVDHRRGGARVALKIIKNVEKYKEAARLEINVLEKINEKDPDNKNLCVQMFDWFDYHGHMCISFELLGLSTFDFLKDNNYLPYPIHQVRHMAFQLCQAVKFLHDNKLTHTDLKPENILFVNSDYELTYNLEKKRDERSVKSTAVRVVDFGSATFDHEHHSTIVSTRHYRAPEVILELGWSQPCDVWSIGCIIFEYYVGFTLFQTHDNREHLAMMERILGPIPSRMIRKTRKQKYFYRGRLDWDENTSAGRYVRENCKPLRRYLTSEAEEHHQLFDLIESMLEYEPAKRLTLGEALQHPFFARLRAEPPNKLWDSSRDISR
Sequence of UniProt Q7KZI7 (whole entry, looked up): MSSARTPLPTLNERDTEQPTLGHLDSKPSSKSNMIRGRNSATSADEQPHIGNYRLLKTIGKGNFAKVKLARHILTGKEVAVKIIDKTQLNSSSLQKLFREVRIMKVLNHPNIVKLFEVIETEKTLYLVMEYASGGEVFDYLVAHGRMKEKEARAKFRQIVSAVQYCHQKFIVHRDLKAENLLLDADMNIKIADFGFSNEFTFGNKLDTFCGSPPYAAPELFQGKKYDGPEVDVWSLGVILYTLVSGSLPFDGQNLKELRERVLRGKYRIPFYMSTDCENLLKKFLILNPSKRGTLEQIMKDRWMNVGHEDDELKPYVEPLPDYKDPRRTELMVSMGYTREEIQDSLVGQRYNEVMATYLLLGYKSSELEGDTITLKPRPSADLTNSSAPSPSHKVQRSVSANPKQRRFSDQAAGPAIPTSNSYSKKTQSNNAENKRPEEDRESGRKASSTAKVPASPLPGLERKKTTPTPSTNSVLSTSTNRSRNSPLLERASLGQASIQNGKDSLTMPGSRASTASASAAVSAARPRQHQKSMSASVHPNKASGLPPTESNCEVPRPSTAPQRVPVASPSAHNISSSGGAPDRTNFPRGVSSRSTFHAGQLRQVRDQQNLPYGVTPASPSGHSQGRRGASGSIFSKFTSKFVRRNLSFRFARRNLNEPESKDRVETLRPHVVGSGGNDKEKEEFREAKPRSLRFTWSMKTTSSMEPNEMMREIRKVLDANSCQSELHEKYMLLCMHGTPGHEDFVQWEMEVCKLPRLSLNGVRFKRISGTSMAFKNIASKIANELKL
Sequence of UniProt P29317 (whole entry, looked up): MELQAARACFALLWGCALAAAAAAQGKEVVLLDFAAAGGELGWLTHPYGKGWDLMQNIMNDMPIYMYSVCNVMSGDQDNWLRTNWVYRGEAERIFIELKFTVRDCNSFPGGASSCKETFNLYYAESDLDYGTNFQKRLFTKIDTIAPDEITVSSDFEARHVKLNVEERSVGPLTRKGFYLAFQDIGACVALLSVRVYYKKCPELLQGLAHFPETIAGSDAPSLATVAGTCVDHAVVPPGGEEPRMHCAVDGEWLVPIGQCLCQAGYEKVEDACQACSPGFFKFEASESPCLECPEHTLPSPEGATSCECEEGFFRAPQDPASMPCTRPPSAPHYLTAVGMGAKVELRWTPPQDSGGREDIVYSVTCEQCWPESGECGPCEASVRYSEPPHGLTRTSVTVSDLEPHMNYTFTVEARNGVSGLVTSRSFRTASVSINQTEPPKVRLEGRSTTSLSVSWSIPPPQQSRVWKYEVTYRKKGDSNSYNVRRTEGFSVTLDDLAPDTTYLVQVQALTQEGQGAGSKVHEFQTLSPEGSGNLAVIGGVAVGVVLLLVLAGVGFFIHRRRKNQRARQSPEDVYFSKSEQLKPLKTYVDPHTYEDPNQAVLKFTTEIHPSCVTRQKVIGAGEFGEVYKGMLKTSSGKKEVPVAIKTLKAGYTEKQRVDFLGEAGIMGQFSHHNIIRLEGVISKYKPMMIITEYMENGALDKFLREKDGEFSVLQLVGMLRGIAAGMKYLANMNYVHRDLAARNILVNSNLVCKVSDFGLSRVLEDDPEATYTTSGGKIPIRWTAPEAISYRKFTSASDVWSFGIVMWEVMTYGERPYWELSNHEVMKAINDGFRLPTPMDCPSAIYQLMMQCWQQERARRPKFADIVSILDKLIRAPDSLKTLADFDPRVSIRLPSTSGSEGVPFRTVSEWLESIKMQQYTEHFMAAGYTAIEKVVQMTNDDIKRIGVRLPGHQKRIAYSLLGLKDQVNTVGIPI
Sequence of UniProt Q9BVS4 (whole entry, looked up): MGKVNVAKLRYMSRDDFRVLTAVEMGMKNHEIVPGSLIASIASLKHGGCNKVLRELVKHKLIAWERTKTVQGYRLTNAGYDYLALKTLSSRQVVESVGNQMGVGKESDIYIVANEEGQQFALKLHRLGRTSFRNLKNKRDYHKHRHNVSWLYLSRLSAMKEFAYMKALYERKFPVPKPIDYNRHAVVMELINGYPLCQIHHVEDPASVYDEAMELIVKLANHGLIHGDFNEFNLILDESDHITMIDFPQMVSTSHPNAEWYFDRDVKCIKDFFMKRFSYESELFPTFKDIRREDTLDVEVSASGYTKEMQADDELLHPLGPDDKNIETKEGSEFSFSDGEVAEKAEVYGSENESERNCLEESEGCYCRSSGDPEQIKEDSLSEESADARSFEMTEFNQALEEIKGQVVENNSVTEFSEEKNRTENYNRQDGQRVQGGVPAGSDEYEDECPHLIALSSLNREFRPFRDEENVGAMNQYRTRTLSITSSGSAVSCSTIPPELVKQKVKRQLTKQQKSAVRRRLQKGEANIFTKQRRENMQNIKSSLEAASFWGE

Study 1
Cell line: mouse MPNST tumor cells
Method: high-content nuclear imaging
Refers to: cell number
Tested at: 10 µM
Time: 12 h
Setting: mean of 2 replicates
Reference: plate mean
Direction: higher = more cells
| SMILES | nuclei count |
| --- | --- |
| CCCn1c(=O)[nH]c2nc(-c3ccc(S(=O)(=O)O)cc3)[nH]c2c1=O | 1.35 z-score |
| COc1ccc2c(c1)C(=O)N(CCc1ccc(S(=O)(=O)NC(=O)NC3CCCCC3)cc1)C(=O)C2(C)C | 1.57 z-score |
| CN1Cc2c(N)cccc2C(c2ccccc2)C1 (stereo not shown) | 3.13 z-score and 1.47 z-score |
| CC(C)(C)C(=O)C(=Cc1cccc([N+](=O)[O-])c1)n1cncn1 | -6.3 z-score |
| O=c1[nH]cc(F)c(=O)[nH]1 | -2.97 z-score and -1.48 z-score |
| COc1ccc([C@@H]2CC(=O)c3c(O)cc(O[C@@H]4O[C@H](CO[C@@H]5O[C@@H](C)[C@H](O)[C@@H](O)[C@H]5O)[C@@H](O)[C@H](O)[C@H]4O)cc3O2)cc1O | -0.499 z-score |
| Cc1ccc(-c2cn3c4c(sc3n2)CCCC4)cc1 | -0.528 z-score |

Study 2
SMILES: COc1cc2c(Nc3ccc(Br)cc3F)ncnc2cc1OCC1CCN(C)CC1
Read-out: enzyme activity
Mode: inhibitor
Tested at: 0.5 µM
Reference: control
| target | remaining activity |
| --- | --- |
| CLK2 (Homo sapiens, UniProt P49760) | 89.7% |
| TEC (Homo sapiens, UniProt P42680) | 91.6% |
| IGF1R (Homo sapiens, UniProt P08069) | 94.6% |
| PRKCZ (Homo sapiens, UniProt Q05513) | 97.8% |
| TYRO3 (Homo sapiens, UniProt Q06418) | 33% |
| EPHA2 (Homo sapiens, UniProt P29317) | 21.5% |

Study 3
SMILES: CC1=C(C#N)[C@@H](c2ccc3[nH]nc(C)c3c2)C(C#N)=C(c2ccc(Cl)cc2)N1
Read-out: cell-free assay
Method: competition with immobilised ligand
Tested at: 1 µM
| target | remaining binding |
| --- | --- |
| GRK3 (Homo sapiens, UniProt P35626) | 85.3% |
| RIOK2 (Homo sapiens, UniProt Q9BVS4) | 100% |
| TIE1 (Homo sapiens, UniProt P35590) | 76.4% |
| MARK2 (Homo sapiens, UniProt Q7KZI7) | 100% |
| PIM2 (Homo sapiens, UniProt Q9P1W9) | 100% |

Mixed results
| Compound | test | test system | conditions | how to read | quantity | result |
| --- | --- | --- | --- | --- | --- | --- |
| CC(=O)N[C@@H](Cc1c[nH]c2ccccc12)C(=O)N[C@@H](CCC(=O)C=[N+]=[N-])C(=O)OC(C)C | UPLC-MS/MS | EL4 tumor, C57BL/6 CES1-/- mice, tumor | subcutaneous, 0.3 mg/kg DON equivalent daily, 5 days | higher = more metabolite | sarcosine level | 2.85e+06 a.u. and 4.35e+06 a.u. and 4.75e+06 a.u. and 3.76e+06 a.u. and 2.87e+06 a.u. and 3.01e+06 a.u. |
